Published values collected from several papers.
Each numbered part is a random draw from the data of one study; scales do not carry over between parts.

Sample 1
Target: Ras GTPase-activating protein-binding protein 1, RRM domain (G3BP1, Homo sapiens, UniProt Q13283)
UniProt Q13283, sequence (whole entry, looked up): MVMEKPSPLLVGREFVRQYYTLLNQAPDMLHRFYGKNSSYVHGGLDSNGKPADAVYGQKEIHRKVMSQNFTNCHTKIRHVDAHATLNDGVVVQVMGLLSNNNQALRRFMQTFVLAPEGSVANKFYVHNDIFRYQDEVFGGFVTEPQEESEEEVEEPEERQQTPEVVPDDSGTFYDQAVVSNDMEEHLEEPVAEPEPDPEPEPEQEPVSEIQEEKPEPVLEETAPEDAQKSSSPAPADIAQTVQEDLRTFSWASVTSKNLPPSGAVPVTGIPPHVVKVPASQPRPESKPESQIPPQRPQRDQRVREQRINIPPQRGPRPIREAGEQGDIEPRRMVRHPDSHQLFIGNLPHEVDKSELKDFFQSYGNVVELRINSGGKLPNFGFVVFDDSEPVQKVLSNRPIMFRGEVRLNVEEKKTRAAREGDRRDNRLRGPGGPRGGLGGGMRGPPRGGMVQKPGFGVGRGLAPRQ
Technique: RNA Bind-n-Seq
Form: RNA
Medium: in vitro
Concentration: 1 µM
Notes: whole 134-nt RNA, ends assumed
With: 150 mM KCl
Relative to: input library
Reading: higher = stronger binding
All sequences stand within: GGGAGUUCUACAGUCCGACGAUC … UGGAAUUCUCGGGUGUCAAGG
Oligonucleotide | log2 enrichment
GUCCUGUGCUACACAUCGUAUGUACCGAAUCGGGGUUUUGGGGUUUUGGGGUUUUGGGGAAAGUAUUAUGUUACGCCGUUCGGAUCUGCA | 1.91
CAAGUCCUGUGCUACACAUCGUAUGUACCGAAUCGGGAGGGUUUUUUUGGGAGGGAAAGUAUUAUGUUACGCCGUUCGGAUCUGCACUUC | 0.677
ACCAUGCAGGUGGGCAUCUUUGGGAAGUGUGGCAAGGGGGGGAUAGGGAGGGGGGUAACACUUUGGGAACAGGUGGUCCCAGGUCGUUUC | -0.461
UCCUGUGCUACACAUCGUAUGUACCGAAUCGGGGAAAAAGGGGAAAGGGGAAAAAGGGGAAAGUAUUAUGUUACGCCGUUCGGAUCUGCA | 0.696
GCAGGAAGUAAAAACAAAUGGAAAUGCUUCGGAUAGAGGCAGGGGUGGGGGUUGCUAAGGAAAGGGUGGGAUGGGAGUGGGUAAAGAGUU | 1.22
GUCCUGUGCUACACAUCGUAUGUACCGAAUCGGUUUUUGGGUUUUUGGGGUUUUUGGGAAAGUAUUAUGUUACGCCGUUCGGAUCUGCAC | -0.179
CACAGACAACACGCACCCACACAGACACAGAGGGAAGGGGUUGGGAUGGGGACAGGGUGCACAGCAGGGCGGGGUAGGACCCCAGCCCCC | -0.403
UCCUCAAGUCCUGUGCUACACAUCGUAUGUACCGAAUCGGUGGGUGGUGGGGAAAGUAUUAUGUUACGCCGUUCGGAUCUGCACUUCCAG | -0.0777
UGGCCCUGGUGGCAUGCGGGGAGGAAGAGGUGGCCUCAUGGAUCGUGGUGGUCCCGGUAGAAUGUUCAGAGGUGGCCGUGGUGGAGACAG | 0.953
ACCAUGCAGGUGGGCAUCUUUGGGAAGUGGGGCAAGGGGGGGAUAGGGAGGGGGGUAACACUUUGGGAACAGGUGGACCCAGGUCGUUUC | 0.252

Sample 2
Target: Sal-like protein 4, full length isoform A (SALL4, Homo sapiens, UniProt Q9UJQ4, residues 1-1053)
UniProt Q9UJQ4, sequence (whole entry, looked up): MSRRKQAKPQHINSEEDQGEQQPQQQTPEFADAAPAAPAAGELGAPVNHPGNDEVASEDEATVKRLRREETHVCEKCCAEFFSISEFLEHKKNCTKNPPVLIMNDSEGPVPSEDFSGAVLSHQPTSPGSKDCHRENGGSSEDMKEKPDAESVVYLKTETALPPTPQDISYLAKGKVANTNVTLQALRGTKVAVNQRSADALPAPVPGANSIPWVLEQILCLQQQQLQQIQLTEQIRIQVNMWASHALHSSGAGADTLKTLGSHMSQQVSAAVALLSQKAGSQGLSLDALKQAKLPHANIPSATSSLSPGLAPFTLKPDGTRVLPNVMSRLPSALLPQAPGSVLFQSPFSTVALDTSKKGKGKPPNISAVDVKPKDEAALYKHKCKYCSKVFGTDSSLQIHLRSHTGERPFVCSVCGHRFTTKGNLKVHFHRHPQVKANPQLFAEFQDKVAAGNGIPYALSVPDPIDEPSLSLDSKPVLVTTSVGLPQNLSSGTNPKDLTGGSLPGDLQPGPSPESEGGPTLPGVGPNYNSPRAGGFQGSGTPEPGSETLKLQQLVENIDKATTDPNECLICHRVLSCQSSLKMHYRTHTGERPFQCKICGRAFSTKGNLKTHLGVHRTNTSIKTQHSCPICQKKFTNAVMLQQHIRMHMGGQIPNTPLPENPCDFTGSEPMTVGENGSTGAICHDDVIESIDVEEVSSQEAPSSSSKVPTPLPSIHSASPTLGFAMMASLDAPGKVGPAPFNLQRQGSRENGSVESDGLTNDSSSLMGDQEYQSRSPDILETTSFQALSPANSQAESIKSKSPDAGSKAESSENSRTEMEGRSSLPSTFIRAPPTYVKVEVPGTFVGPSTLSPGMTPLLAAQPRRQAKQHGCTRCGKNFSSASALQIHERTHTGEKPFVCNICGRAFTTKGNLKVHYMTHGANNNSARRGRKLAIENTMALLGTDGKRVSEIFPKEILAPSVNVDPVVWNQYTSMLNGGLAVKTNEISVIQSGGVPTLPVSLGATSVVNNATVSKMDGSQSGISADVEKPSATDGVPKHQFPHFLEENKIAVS
Technique: universal PBM
Form: double-stranded DNA, one strand shown
Medium: in vitro
Concentration: 600 nM
Notes: 8-mer, flanks averaged, mean of replicates
Reading: higher = stronger binding
Oligonucleotide | E-score
AGGACGCC | -0.328
CTTCCAGA | -0.0598
AAATGTGG | 0.19
CTCGCAGA | -0.204
TGAGGCAA | -0.00396
GAGGCTCC | -0.295
CTCCTTTA | 0.0477
CTAACCAA | 0.0961
CCAGCTAA | -0.0807
GCTACCGA | -0.0885
GGATTCCC | -0.386
TCGCTACA | -0.15
AGTGGTAG | -0.0964
CCAGGGTC | -0.369
CGATCCAG | -0.25
GATATGGC | -0.0684

Sample 3
Target: Histone acetyltransferase KAT6A, winged helix 1, GST fusion (KAT6A, Homo sapiens, UniProt Q92794, residues 1-85)
Technique: protein binding microarray
Form: double-stranded DNA, one strand shown
Medium: in vitro
Concentration: not given
Notes: 8-mer, flanks averaged, mean of 2 arrays, mostly near background
Relative to: not given
Reading: higher = stronger binding
Target sequence (chain): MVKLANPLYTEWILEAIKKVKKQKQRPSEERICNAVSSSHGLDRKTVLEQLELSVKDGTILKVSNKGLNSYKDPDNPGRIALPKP
Oligonucleotide | E-score
AGTTCCAT | -0.14
CAGGCTGC | -0.151
CCATCCGC | 0.116
AGCGCTGC | 0.239
ACCGACGT | 0.0693
TGAACGAA | -0.197
AGCGATAC | 0.019
AACCCCAG | -0.275
CTATTAAG | -0.17
GCGAGCCA | -0.00666
ACAAGTCA | -0.0199

Other studies, line by line
Molecule | target | assay | test system | conditions | scale | endpoint | result
PhoQ, residues 284 288 289 292 302 303 AGHLVA | PhoP, residues 12 14 15 18 19 VQALL (Escherichia coli, UniProt P23836) | Sort-seq, refers to: YFP reporter | E. coli | PhoQ-PhoP variant library, with: 10 µM Mg2+ | relative to: high Mg2+ state, higher = stronger signaling | fold induction | 8.36
